{"data": "Experimental data of several laboratories", "cell line": "NCI-H322M", "note": "Each line is one published result; not all experiments were run side by side."}
{"SMILES": "COC(=O)/C=C1\\C(=O)C=C2C3CC4CC(CCC4(C)N21)C3(C)NC(C)=O (centres unmarked)", "observed": "cell growth", "technique": "NCI screen", "measurement": "IC50", "value": "18.4 µM"}
{"SMILES": "C#C[C@@]1(O)[C@@H](CO)O[C@@H](n2ccc3c(N)ncnc32)[C@@H]1O", "technique": "SRB", "setting": "NCI-60 screen", "measurement": "TGI", "value": "6.08 µM"}
{"SMILES": "CCCCCCCCCCCCCCCCCCOc1ccc(CC(=O)OCC[N+](C)(C)C)cc1", "technique": "SRB", "tested at": "10 µM", "measurement": "growth inhibition", "value": "< 0%"}
{"SMILES": "S=C([S][Au-][P+](CCCCCC[P+]([Au-][S]C(=S)n1cccn1)(c1ccccc1)c1ccccc1)(c1ccccc1)c1ccccc1)n1cccn1", "observed": "cell growth", "technique": "NCI-60 screen", "setting": "non-small cell lung cancer", "measurement": "log10 TGI", "value": "> -4"}
{"SMILES": "Cn1cncc1C1=CN(c2ncnc3[nH]cnc23)CCS1", "setting": "lung cancer", "measurement": "TGI", "value": "110 µM"}
{"SMILES": "O=C(Nc1nnc2n3c(Cc4ccccc4)n[nH]c3nc(-c3ccc(Cl)cc3)c1-2)c1ccccc1", "technique": "SRB", "tested at": "10 µM", "setting": "NCI60 single-dose screen", "baseline": "untreated", "measurement": "cell growth", "value": "101%"}
{"SMILES": "CCCc1n(Cc2ccc3ccccc3c2)c2ccccc2[n+]1Cc1ccc2ccccc2c1.[Br-]", "technique": "NCI60 five-dose", "measurement": "TGI", "value": "2.31 µM"}
{"SMILES": "CCCCCCCCCCCCCCCCCCOc1cccc(CC(=O)OCC[N+]2(C)CCCC2)c1", "technique": "SRB", "tested at": "10 µM", "measurement": "growth inhibition", "value": "< 0%"}
{"SMILES": "Cc1n[nH]c2nc(-c3ccc(Cl)cc3)c3c(NC(=O)c4ccccc4)nnc-3n12", "technique": "SRB", "tested at": "10 µM", "setting": "NCI60 single-dose screen", "baseline": "untreated", "measurement": "cell growth", "value": "108%"}
{"SMILES": "CCCCCCCCCCCCCCCCCCOc1ccc(CC(=O)OCC[N+]2(C)CCCC2)cc1", "technique": "SRB", "tested at": "10 µM", "measurement": "growth inhibition", "value": "< 0%"}
{"SMILES": "CCOC(=O)CSc1nc(-c2ccc(Cl)cc2)c2c(NC(=O)c3ccccc3)nnc-2[nH]1", "technique": "SRB", "tested at": "10 µM", "setting": "NCI60 single-dose screen", "baseline": "untreated", "measurement": "cell growth", "value": "96.6%"}
{"SMILES": "CCCCc1n(Cc2ccc3ccccc3c2)c2ccccc2[n+]1Cc1ccc2ccccc2c1.[Br-]", "technique": "NCI60 five-dose", "measurement": "TGI", "value": "2.57 µM"}
{"SMILES": "NNc1nc(-c2ccc(Cl)cc2)c2c(NC(=O)c3ccccc3)nnc-2[nH]1", "technique": "SRB", "tested at": "10 µM", "setting": "NCI60 single-dose screen", "baseline": "untreated", "measurement": "cell growth", "value": "98.9%"}
{"SMILES": "[Br-].c1ccc2cc(Cn3c[n+](Cc4ccc5ccccc5c4)c4ccccc43)ccc2c1", "technique": "NCI60 five-dose", "measurement": "TGI", "value": "2.89 µM"}
{"note": "Excerpt of the above:"}
{"SMILES": "C#C[C@@]1(O)[C@@H](CO)O[C@@H](n2ccc3c(N)ncnc32)[C@@H]1O", "technique": "SRB", "setting": "NCI-60 screen", "measurement": "TGI", "value": "6.08 µM"}
{"SMILES": "CCCCCCCCCCCCCCCCCCOc1ccc(CC(=O)OCC[N+](C)(C)C)cc1", "technique": "SRB", "tested at": "10 µM", "measurement": "growth inhibition", "value": "< 0%"}
